Measured values gathered from unrelated publications.
A part holds a random share of what one study measured.

Study 1
Target: RNA binding protein fox-1 homolog 2, RRM domain, GST-SBP tag (RBFOX2, Homo sapiens, UniProt O43251-10, residues 100-194)
Method: RNA Bind-n-Seq
Molecule type: RNA
Matrix: in vitro
Concentration: 365 nM
Setting: natural RNA segment, single round, ends assumed
Relative to: no-protein control
Reading: higher = stronger binding
Construct (chain): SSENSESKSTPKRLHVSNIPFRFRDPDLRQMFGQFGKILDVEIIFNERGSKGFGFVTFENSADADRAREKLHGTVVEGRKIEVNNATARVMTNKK
| Oligonucleotide | RBNS enrichment (R) |
| --- | --- |
| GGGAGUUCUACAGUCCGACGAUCGAAGGAAGCGUCUACAGAGAACGGUUUCCAACAUCCAUCGCUGCAGCAGACGGUGUCCCUCAGUGACUUGAGAGACAAGGACAAGGAAAUGUGCUGGGCCAAGGAGCUGCUGGAAUUCUCGGGUGCCAA | 0.44 |
| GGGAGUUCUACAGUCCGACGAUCUAUUUGUACAGAUGAGAGAGGAGCAGAAGAGGCGGCUGUGCUCGAGUUGAGAGACCAGGCAACCCACUGUUGAGAACCACUCUCAGUCAGCUGGUAGGGACAUUACACCAUGGAAUUCUCGGGUGCCAA | 0.367 |
| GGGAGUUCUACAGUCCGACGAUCCUUUCAUCUAGUACCUGGACCAUUCUCCCUAGACCCUUGCCUUCCUCCCUGGCCAACACAUACUUGCAGUGUCAGAUCUGGUACAUGAAUGGCCAUUCUACCCAGAUAGGUGGAAUUCUCGGGUGCCAA | 0.265 |
| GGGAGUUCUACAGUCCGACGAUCCCAGCCCUGCUUGCUUUUGUGAACGUCGUGUGAGUACACCGAGGUGUUGCAGCUUUCCUUCCCUCUAGCUCAGGAGGCCUGGCCUGAGCCAGGUUGGAGCUUAAAUUGCUUGGAAUUCUCGGGUGCCAA | 0.795 |
| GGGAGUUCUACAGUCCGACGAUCAUCCACAGCCCAAGGGCGGGGCUAUGCCUUGUCUGGGGACCCUGUAGAGUCACUGACCCUGGAGCGGCUCUCCUGAGAGGUGCUGCAGGCAAAGUGAGACUGACACCUCAUGGAAUUCUCGGGUGCCAA | 0.173 |
| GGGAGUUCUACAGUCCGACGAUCGCUUUUUUCACAUGUUUUAUGGAAUUGUUCACAUGAUUUGAAAUAAUAAAAUGUAGAAAGAAAACACAAAAACUUCCGUGUUCUUUUCUCCUGGGGACUGAGCAAGAAGAUGGAAUUCUCGGGUGCCAA | 1.16 |
| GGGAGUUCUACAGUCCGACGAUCAUAUGAAUGAACAAACCUGUGAUCUAGUCCUUGUCUUGUAAUUGUGGAUUAAUGUCAAUGUUAAUCAGCCCCUCAAAGGGAGAGAAAAGCUGGACCUUUUCCCUUGCUGUUGGAAUUCUCGGGUGCCAA | 2.14 |
| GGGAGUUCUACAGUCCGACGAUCCAGAUUCACCAGUCUGCCCUGUCACGUAGUUGAAGGAGUUGCAUUUAUCUUUCUGGCUCCUAAUUCCUUUAAAAUUACAUUUGUUGCAGAACCUCCACAAGGCUAAAUAAUGGAAUUCUCGGGUGCCAA | 14.1 |
| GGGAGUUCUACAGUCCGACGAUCCAGCUCUAGCUAUCCAGCAGACUUUUCAUUAUGACUUACAUGGCAGGAGCUCUAAUUAUGCUUUAAAAAUCUGUUGUGGAGAUUGCUUUAAAUGCUCCCUGCCUGGUGUGUGGAAUUCUCGGGUGCCAA | 0.553 |
| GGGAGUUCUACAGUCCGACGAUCGUAUAAUCUGGUCAGCUUGGACAAUUCCUGCCUCAUUUCCUAUUAAUGUUAGUUUGGAUAAAAAUAAUUAGCAUUUAGUAAUUGCCUUGUUUCUGAGUUUAGCCUAUAUAUGGAAUUCUCGGGUGCCAA | 0.452 |
| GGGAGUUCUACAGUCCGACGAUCCUCAGUUUGCUGUAAGAUUGUAUUCUGUAGAUAUGUUUCCAUGUACAUAAAGGAAAAUAUAUAUCAGAGUUAUAUUUUAAUUUUUAUUCUAAAUGGAAAAAAAACCCUUUUGGAAUUCUCGGGUGCCAA | 0.54 |
| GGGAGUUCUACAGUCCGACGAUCUGUGGCUGUGGGGUAUAGCACCCUCACCCUAGCUGCCUGGAAGCCAGUAUCCUGCGAGCAGCCUUCAGAUGAAGAUGCAGAACUCUCACCUUCUCCUGCACCAUGCCUGCUGGAAUUCUCGGGUGCCAA | 2.94 |

Study 2
Target: RING finger protein unkempt homolog, zinc fingers 1-6, GST-SBP tag (UNK, Homo sapiens, UniProt Q9C0B0, residues 30-357)
Sequence of UniProt Q9C0B0 (30-357, looked up): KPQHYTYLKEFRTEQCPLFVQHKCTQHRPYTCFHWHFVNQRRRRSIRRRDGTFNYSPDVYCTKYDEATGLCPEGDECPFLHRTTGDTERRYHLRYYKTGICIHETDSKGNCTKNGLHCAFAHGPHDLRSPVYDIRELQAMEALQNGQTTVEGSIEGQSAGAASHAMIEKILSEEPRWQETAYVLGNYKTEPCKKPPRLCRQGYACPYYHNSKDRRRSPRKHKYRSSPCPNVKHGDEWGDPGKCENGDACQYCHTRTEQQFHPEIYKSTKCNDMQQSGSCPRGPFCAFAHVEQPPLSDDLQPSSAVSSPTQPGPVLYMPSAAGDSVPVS
Method: RNA Bind-n-Seq
Molecule type: RNA
Matrix: in vitro
Concentration: not given
Setting: RNA with constant flanks, human-mouse chimeric sites, ends assumed
Relative to: input RNA pool
Reading: higher = stronger binding
| Oligonucleotide | bound/input enrichment [ratio] |
| --- | --- |
| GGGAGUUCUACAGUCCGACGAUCUCCCAAAUUAUAAGGCAAGAAGGAGCCUUGAGACAAACACUCCACACACAGGGAAGGCGAUAACAUUGUACAUUGGUUUACAUUUUUUCCCCCUGUGGAUUUUUCUAGAGGUCAUAGUGCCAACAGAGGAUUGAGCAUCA | 0.397 |
| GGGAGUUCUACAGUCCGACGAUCCGCUGGCGUUGAACUGUGGACUCUGAUCUUGAUCUCUUCUCAGGCACGUGUGCCUUCUCUUAGUCCCUGUUUUCGGGAUGUUAUGAAUCUCAGUACUGUGGUUUGAAAGCACCAGCUUUGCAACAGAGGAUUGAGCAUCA | 0.218 |
| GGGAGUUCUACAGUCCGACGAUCCUGGCCUGGCCCUCCCCAGGGGCCUCCUUUCGUAUAGUCACUGCUUCUGCAUCAGAUACUUUCAGCUCCAAGUCCUGACUGGGUGGGGCACCCAUUUGAGGCAGGGUGUUUUGGUACCCUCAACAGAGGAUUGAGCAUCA | 0.407 |
| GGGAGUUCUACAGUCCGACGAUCGAUAAGAAAAGCUUGUUGGAGACCCGAUUGCAUGUCACUGGCAGAGACCUGAGGUGUCAAAUAGCUGAAACUUUCGGAUUUCAAGAAAAUUACAUCAAGAUCGUAAUAAAUAAGAAACAGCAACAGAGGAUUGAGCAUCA | 0.239 |
| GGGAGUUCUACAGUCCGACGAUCCCUCCCCCGGGCCACCCACCCCUCCCGGCUCCCCGCCGAGAUCCAGGUUUCUUCUUAUUUCAUAGCAAAUAAGAAAAAUGUUCUACGCACAUUUUGUCCUCAGUAAAAGAGGGCCUCUGGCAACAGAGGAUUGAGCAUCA | 1.26 |
| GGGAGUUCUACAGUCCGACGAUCUUAUCCAAGACUCAACGAAAGACUCCAACCGUUAUUCAUAAACAUUAUCAAAUUCAUCGCAUUAGACAUUUUUAUAUGAGAAAAGUCAAAUUUACUCAACAGAAUUACCAUGACAGACUGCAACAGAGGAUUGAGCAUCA | 23 |
| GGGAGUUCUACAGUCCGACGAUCGCGGCAGAAUCAUGGAGGACAUGAUGGAGCUCCCCAAAGCGCGCGUCAACGCCAGCAUGUUACCACAGUAUAUCGACCGGCCCGUGUGCUUCGUGGGGAAGCUGGAAAAGAUUCAUCCCACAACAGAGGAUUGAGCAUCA | 0.158 |
| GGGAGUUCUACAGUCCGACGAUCUGUGCAUAUGAUGCUUGAGAUGGUUUUUGCAAAAGCAGAAAUCGCUGCAAGGUCAUUACAAUAGAUAAAAGUGGUAUUUUAAACCUUUGAAAUAAAUGGAUGUAACUGUACCUUGGUACACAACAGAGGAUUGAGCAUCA | 0.412 |
| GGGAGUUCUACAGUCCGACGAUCAGAAAGCAAAACUUGGAACGAUUUAAGAAAGGAGACGUAAGAUUCUUGAUUUGCACAGAUGUAGCUGCUAGAGGAAUUGAUAUCCAUGGUGUUCCUUAUGUGAUCAACGUCACCCUGCCUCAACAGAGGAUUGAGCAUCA | 0.319 |
| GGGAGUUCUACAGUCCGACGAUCACUCAGAGAUCCACCUCCCAAAGUGCUGGGAGUAAAGGUGUGGCCACCACACCUAACUUCAUAGACAUAUAUUUUUUUUAAUAUGAAUGAACUCUUGCGUCCAGGGAAGAAAGAUUUGUUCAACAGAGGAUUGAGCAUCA | 1.97 |
| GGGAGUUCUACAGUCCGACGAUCGAUGAUAAUCACACAAACAAGUCACUGUUAUGUGACCAGAGUUGUACUUCUUUUCCUGAUUAAUAUUCUCCCUGGAACCACUGGUCAAGGGGAAUCAAGACGACAAGAACCCGGGGACUUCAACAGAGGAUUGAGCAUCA | 0.199 |

Study 3
Target: Histone acetyltransferase KAT6A, winged helix 1, GST fusion (KAT6A, Homo sapiens, UniProt Q92794, residues 1-85)
Method: protein binding microarray
Molecule type: double-stranded DNA, one strand shown
Matrix: in vitro
Concentration: not given
Setting: 8-mer, flanks averaged, mean of 2 arrays, mostly near background
Relative to: not given
Reading: higher = stronger binding
Target sequence (chain): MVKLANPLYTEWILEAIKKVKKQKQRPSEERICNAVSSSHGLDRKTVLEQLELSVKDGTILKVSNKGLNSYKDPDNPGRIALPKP
| Oligonucleotide | E-score |
| --- | --- |
| ACCCAAAA | -0.148 |
| TACGACCA | -0.171 |
| TACGTCTA | -0.146 |
| CAATAGGG | -0.0706 |
| ACGCGCAC | 0.373 |
| AGCACCCT | -0.248 |
| CAACTACA | -0.175 |
| ACGCCCGT | 0.385 |
| ATAGACCA | -0.147 |
| ATTGAATA | -0.194 |
| CTTACCGC | 0.301 |
| CTGCGAGA | -0.12 |
| GACAGAGC | -0.00066 |
| CTGCATTC | -0.231 |
| CGTCGGCA | 0.434 |
| CTCTACGC | -0.0927 |
| AGTCGACG | 0.0664 |
| AACAGCGG | 0.183 |
| AAGTTCGT | -0.189 |
| ATGTTGCA | -0.25 |
| GTGATCAA | -0.173 |
| CTCATAGA | -0.152 |
| GCAACTCC | 0.179 |
| ATACTTAG | -0.105 |
| TCACTGGA | -0.146 |

Study 4
Target: Sal-like protein 4, full length isoform A (SALL4, Homo sapiens, UniProt Q9UJQ4, residues 1-1053)
Sequence of UniProt Q9UJQ4 (whole entry, looked up): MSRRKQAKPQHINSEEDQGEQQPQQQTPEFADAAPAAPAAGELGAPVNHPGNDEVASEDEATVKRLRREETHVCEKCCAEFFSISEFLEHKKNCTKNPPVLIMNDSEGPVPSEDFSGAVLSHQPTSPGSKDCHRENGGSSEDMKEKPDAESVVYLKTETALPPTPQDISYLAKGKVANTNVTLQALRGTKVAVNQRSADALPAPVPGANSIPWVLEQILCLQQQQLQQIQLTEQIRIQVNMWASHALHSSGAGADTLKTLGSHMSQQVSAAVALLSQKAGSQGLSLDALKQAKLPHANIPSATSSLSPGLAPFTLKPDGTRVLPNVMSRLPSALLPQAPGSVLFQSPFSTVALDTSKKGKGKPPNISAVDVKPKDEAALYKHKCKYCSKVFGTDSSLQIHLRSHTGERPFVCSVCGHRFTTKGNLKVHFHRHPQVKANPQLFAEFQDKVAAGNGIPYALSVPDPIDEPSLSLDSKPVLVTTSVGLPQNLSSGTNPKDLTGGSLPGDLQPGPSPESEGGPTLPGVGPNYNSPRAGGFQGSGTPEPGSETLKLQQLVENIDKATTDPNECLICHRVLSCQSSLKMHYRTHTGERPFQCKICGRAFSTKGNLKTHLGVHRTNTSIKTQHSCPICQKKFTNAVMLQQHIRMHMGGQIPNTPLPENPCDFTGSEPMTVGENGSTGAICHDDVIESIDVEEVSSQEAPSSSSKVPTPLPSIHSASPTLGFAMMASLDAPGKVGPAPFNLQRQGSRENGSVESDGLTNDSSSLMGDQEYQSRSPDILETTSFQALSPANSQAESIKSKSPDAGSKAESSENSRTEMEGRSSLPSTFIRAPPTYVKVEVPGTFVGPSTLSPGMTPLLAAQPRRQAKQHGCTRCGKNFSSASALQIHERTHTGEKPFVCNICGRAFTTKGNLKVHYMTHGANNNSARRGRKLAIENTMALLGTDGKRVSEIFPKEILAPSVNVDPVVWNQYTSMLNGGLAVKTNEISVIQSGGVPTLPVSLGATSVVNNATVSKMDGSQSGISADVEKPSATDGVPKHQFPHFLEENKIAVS
Method: universal PBM
Molecule type: double-stranded DNA, one strand shown
Matrix: in vitro
Concentration: 600 nM
Setting: 8-mer, flanks averaged, mean of replicates
Reading: higher = stronger binding
| Oligonucleotide | E-score |
| --- | --- |
| AGGATGCA | -0.145 |
| CCGAACAG | -0.14 |
| GTCAGGGA | -0.127 |
| AGTACCTA | 0.161 |
| CGGTTCAG | -0.259 |
| TATTAGAA | 0.345 |
| TACTGCCA | -0.015 |
| ACGGGTGA | -0.115 |
| GCCGCGTA | -0.192 |
| AATATCCT | 0.185 |
| AGCGAAAG | 0.0307 |
| GTTTTTCA | 0.138 |
| GCATCGTA | -0.0424 |
| CATTATTA | 0.39 |
| AGTGCGGG | -0.206 |
| CGTCCTAA | -0.0299 |
| AGCATCAA | 0.162 |
| TATCATGA | 0.243 |
| AGCGCCCT | -0.279 |
| CCGTCTAG | -0.254 |
